Results of several laboratories.
Each line is one published result; not all experiments were run side by side.
rep main protease: Replicase polyprotein 1ab, main protease (rep, Severe acute respiratory syndrome coronavirus 2, UniProt P0DTD1)

C#C[C@]1(O)CC[C@H]2[C@@H]3CCC4=CCCC[C@@H]4[C@H]3CC[C@@]21C has an EC50 of greater than 50.1 µM (SARS-CoV-2; viral replication, high-content imaging screen; cell-based).
Under “viral replication inhibition”, COc1cc(OC)c2c(=O)[nH]c(-c3cc(C)c(OCCO)c(C)c3)nc2c1 is recorded as “inactive” (SARS-CoV-2; concentration not given, Paris laboratory).
CC(C)=CCc1c(O)ccc(C(=O)/C=C/c2ccc(O)cc2)c1O gave a CPE inhibition of 0% (SARS-CoV-2; viral replication; Vero E6; 3.125 µM).
For O=C(O)c1ccc2c(c1)nc(Nc1cccc(Cl)c1)c1ccncc12, activity class read “active” (SARS-CoV-2; viral replication; Vero E6; concentration not given).
With Cc1nn(-c2ccc(Cl)cc2)c2c1C(c1ccc(F)cc1F)C(C#N)=C(N)O2 (centres unmarked) the viral reduction was 0.0548% (SARS-CoV-2; viral replication; Vero; 1 µM).
COc1ccc2cc1Oc1ccc(cc1)C[C@H]1c3cc(c(OC)cc3CCN1C)Oc1c(OC)c(OC)cc3c1[C@H](C2)N(C)CC3 has an EC50 of 3.98 µM (SARS-CoV-2; viral replication, GFP plate reader screen; BetaCov/Belgium/GHB-03021/2020; cell-based).
COc1cc2c(c(OC)n1)[C@]1(O)[C@H](O)[C@H](CN(C)C)[C@@H](c3ccccc3)[C@]1(c1ccc(C#N)cc1)O2 — result for activity class: “active” (SARS-CoV-2; viral replication; Vero E6; concentration not given).
With CCC(C)n1ncn(-c2ccc(N3CCN(c4ccc(OC[C@H]5CO[C@](Cn6cncn6)(c6ccc(F)cc6F)O5)cc4)CC3)cc2)c1=O (some centres unmarked) the EC50 was greater than 100 µM (SARS-CoV-2; viral replication, high-content imaging screen; cell-based).
For Cc1nn(-c2ccc(Cl)cc2)c2c1C(c1ccc(Br)cc1)C(C#N)=C(N)O2 (centres unmarked), “viral titre log reduction” read 0.238 log10 (SARS-CoV-2; Vero C1008; 10 µM; relative to: positive control).
CCC(CC)COC(=O)[C@H](C)N[P@](=O)(OC[C@H]1O[C@@](C#N)(c2ccc3c(N)ncnn23)[C@H](O)[C@@H]1O)Oc1ccccc1 has a selectivity index of 1480 (SARS-CoV-2; Vero C1008; relative to: cytotoxicity IC50 over antiviral EC50).
For CN1CCN(CCCN2c3ccccc3Sc3ccc(C(F)(F)F)cc32)CC1, the IC50 was 1.78 µM (SARS-CoV-2; viral replication, RT-qPCR; A549 expressing ACE2).
The mean inhibition of O=C(O[C@@H]1Cc2c(O)cc(O)cc2O[C@@H]1c1cc(O)c(O)c(O)c1)c1cc(O)c(O)c(O)c1 is reported as 93.3% (SARS-CoV-2; cytopathic effect; Vero E6; 50 µM, replicate run).
Cc1nc(Nc2ccc(F)cc2)nc(N2CCc3ccccc3C2C)c1C (centres unmarked) gave an EC50 of 10.5 µM (SARS-CoV-2; viral replication, high-content imaging screen; cell-based).
CN(C)CCC(c1ccc(Cl)cc1)c1ccccn1 (centres unmarked) has an IC50 of greater than 2 µM (SARS-CoV-2; viral replication; Huh-7).
NC1=N[C@@](c2cccc(-c3cncnc3)c2)(c2ccnc(C(F)F)c2)c2cccc(F)c21 has an inhibition of 0.303% (rep main protease; reporter gene (mKate2), inhibitor; 20 µM).
Nc1ncnc2c([C@@H]3N[C@H](CO)[C@@H](O)[C@H]3O)c[nH]c12 gave an antigen-positive cells of 56.7% (Zaire ebolavirus; antibody staining; human macrophages; 3.1 µM).
COc1ccc(C[C@@H]2c3cc(Oc4cc(C[C@@H]5c6cc(O)c(OC)cc6CCN5C)ccc4O)c(OC)cc3CCN2C)cc1 gave a CPE inhibition of 0% (SARS-CoV-2; viral replication; Vero E6; 0.7812 µM; relative to: mean of replicates).
With O=C(NCCCN1CCCCCC1)c1ccc2c(c1)sc1nc(-c3ccccc3)cn12 the efficacy was 86.7% (SARS-CoV-2; cytopathic effect; USA_WA1/2020; round 2, 5-point).
The EC90 of `calpain inhibitor III` is reported as 0.698 µM (SARS-CoV-2; viral replication; Huh-7-ACE2, USA-WA1/2020).
O=C(/C=C/c1ccc(O)c(O)c1/C=C/c1ccc(O)c(O)c1)O[C@H](Cc1ccc(O)c(O)c1)C(=O)O has a CPE inhibition of 0% (SARS-CoV-2; viral replication; Vero E6; 12.5 µM).
With Cc1ccc2nc(C3CCCN(Cc4cccc(-c5cccnc5)c4)C3)[nH]c(=O)c2c1 (centres unmarked) the AC50 was 12.6 µM (SARS-CoV-2; cytopathic effect, cell-based CPE; USA_WA1/2020; round 2, 5-point dilution).
Under “viral replication inhibition”, Nc1cc(N2CCCCC2)nc(N)[n+]1[O-] is recorded as “inactive” (SARS-CoV-2; concentration not given, Paris laboratory).
With CCCC(C(=O)OCCN(CC)CC)(c1ccccc1)c1ccccc1 the EC50 was greater than 100 µM (SARS-CoV-2; viral replication, high-content imaging screen; cell-based).
CCC1(C)CC(=O)NC1=O (centres unmarked) gave an IC50 of greater than 2 µM (SARS-CoV-2; viral replication; Huh-7).
With Cc1ccccc1CN1C(=O)c2ccccc2Sc2ccc(C(=O)NCCCN3CCOCC3)cc21 the AC50 was 14.1 µM (SARS-CoV-2; cytopathic effect, cell-based CPE; USA_WA1/2020).
CC(C)(C)[C@H](NC(=O)C(F)(F)F)C(=O)N1C[C@H]2[C@@H]([C@H]1C(=O)N[C@H](C#N)C[C@@H]1CCNC1=O)C2(C)C has an inhibition of 110% (SARS-CoV-2; viral replication, infectious virus; Vero E6; 0.1111 µM).
For CC[C@H](C)[C@H](NC(=O)[C@H](CC(C)C)NC(=O)[C@H](Cc1c[nH]c2ccccc12)NC(=O)[C@H](CCC(N)=O)NC(=O)[C@@H](NC(=O)[C@H](Cc1ccccc1)NC(=O)[C@H](C)NC(=O)[C@H](CCCCNC(=O)COCCOCCNC(=O)COCCOCCNC(=O)CC[C@H](NC(=O)CCCCCCCCCCCCCCCCCCC(=O)O)C(=O)O)NC(=O)[C@H](CCC(N)=O)NC(=O)[C@H](C)NC(=O)[C@@H](NC(=O)[C@H](CCCCN)NC(=O)[C@H](CC(=O)O)NC(=O)[C@H](CC(C)C)NC(=O)C(C)(C)NC(=O)[C@@H](NC(=O)[C@H](CO)NC(=O)[C@H](Cc1ccc(O)cc1)NC(=O)[C@H](CC(=O)O)NC(=O)[C@H](CO)NC(=O)[C@@H](NC(=O)[C@H](Cc1ccccc1)NC(=O)[C@@H](NC(=O)CNC(=O)[C@H](CCC(=O)O)NC(=O)C(C)(C)NC(=O)[C@@H](N)Cc1ccc(O)cc1)[C@@H](C)O)[C@@H](C)O)[C@@H](C)CC)[C@@H](C)CC)C(C)C)C(=O)N[C@@H](C)C(=O)NCC(=O)NCC(=O)N1CCC[C@H]1C(=O)N[C@@H](CO)C(=O)N[C@@H](CO)C(=O)NCC(=O)N[C@@H](C)C(=O)N1CCC[C@H]1C(=O)N1CCC[C@H]1C(=O)N1CCC[C@H]1C(=O)N[C@@H](CO)C(N)=O, “serious adverse events” read 0% (healthy human; 5.0 mg, single ascending dose).
The EC50 of O=C(NO)c1ccc(C2=Nc3ccccc3Oc3ccccc32)cc1 is reported as greater than 100 µM (SARS-CoV-2; viral replication, high-content imaging screen; BetaCov/Belgium/GHB-03021/2020; cell-based).
CC(C)(C)[C@]1(O)CCN2C[C@@H]3c4ccccc4CCc4cccc(c43)[C@H]2C1 gave an IC50 of greater than 10 µM (SARS-CoV-2; viral replication, RT-qPCR; A549 expressing ACE2).
For COc1ccccc1C(=O)NC1CCCN(Cc2cccc(-c3ccc(C)c(Cl)c3)c2)C1 (centres unmarked), the maximum response was 41.8% (SARS-CoV-2; cytopathic effect; USA_WA1/2020; retest, 8-point, duplicates).
The EC50 of CCN(CC)CCOC1(c2ccccc2)CCN(CCNc2ccccc2)CC1 is reported as 22.4 µM (SARS-CoV-2; viral replication, high-content imaging screen; cell-based).
For Cc1nn(-c2ccc(Cl)cc2)c2c1C(c1ccc(Cl)c(Cl)c1)C(C#N)=C(N)O2 (centres unmarked), “viral titre log reduction” read 0.0134 log10 (SARS-CoV-2; Vero C1008; 1 µM; relative to: positive control).
With CC(=O)N[C@@H](CC(C)C)C(=O)N[C@@H](CC(C)C)C(=O)N[C@H](C=O)CCCN=C(N)N.CC(=O)N[C@@H](CC(C)C)C(=O)N[C@@H](CC(C)C)C(=O)N[C@H](C=O)CCCN=C(N)N.O=S(=O)(O)O the inhibition was -0.884% (rep main protease; reporter gene (mKate2), inhibitor; 20 µM).
Cc1ccc(NS(=O)(=O)c2cccc(C(=O)NC3CCN(c4ncnc5[nH]cnc45)CC3)c2)cc1 has a relative infection of 86.6% (SARS-CoV-2; A549-ACE2, Wuhan-Hu-1; 0.823 µM; relative to: untreated).
For CCCCc1oc2ccc(NS(C)(=O)=O)cc2c1C(=O)c1ccc(OCCCN(CCCC)CCCC)cc1, the EC50 was greater than 100 µM (SARS-CoV-2; viral replication, high-content imaging screen; cell-based).
With CCn1c2ccccc2c2cc(CN3CCN(Cc4cccc(Cl)c4)CC3)ccc21 the maximum response was 88.3% (SARS-CoV-2; cytopathic effect; USA_WA1/2020; retest, 8-point, duplicates).
For CN[C@]1(c2ccccc2)CC[C@]2(CC1)OCCc1c3cc(F)ccc3[nH]c12, the inhibition was 45.9% (SARS-CoV-2; viral replication; Vero E6, USA-WA1/2020; 2.5 µM).
With CCCN(CCC)CCNC(=O)c1cc(-c2ccc(Br)s2)nc2ccccc12 the AC50 was 10 µM (SARS-CoV-2; cytopathic effect, cell-based CPE; USA_WA1/2020; round 2, 5-point dilution).
With COc1cc2c(cc1OC)C1CC(=O)C(CC(C)C)CN1CC2 (centres unmarked) the IC50 was greater than 2 µM (SARS-CoV-2; viral replication; Huh-7).
The EC90 of C1=C(c2ccc(CN3CCCCC3)cc2)N2CCN=C2c2ccccc21 is reported as 1.73 µM (SARS-CoV-2; viral replication, inhibitor; Vero E6, USA-WA1/2020; 24 h).
The efficacy of CCCCNC(=O)C1CCCN(Cc2nc(-c3ccc(Cl)cc3)oc2C)C1 (centres unmarked) is reported as 20% (SARS-CoV-2; cytopathic effect; USA_WA1/2020; retest, 8-point, duplicates).
For Cc1nn(-c2ccc(Cl)cc2)c2c1C(c1ccc(-c3ccccc3)cc1)C(C#N)=C(N)O2 (centres unmarked), the viral titre was 525000 IU/mL (SARS-CoV-2; Vero; 10 µM).
Cc1c(C)c(NCC(=O)N(C)C2CCN(Cc3ccc(C(N)=O)cc3)CC2)c(C)c(C)c1N gave an IC50 of greater than 2 µM (SARS-CoV-2; viral replication; Huh-7).
For COc1ccc(CN2CCN(Cc3ccccc3)CC2)cc1, the IC50 was greater than 10 µM (SARS-CoV-2; viral replication; A549 expressing ACE2; inactive set pIC50 4).
For [N-]=[N+]=N[C@]1(CO)O[C@@H](n2ccc(N)nc2=O)[C@@H](F)[C@@H]1O, antiviral activity read “inactive” (SARS-CoV-2; A549-hACE2, USA-WA1/2020 nLuc; concentration not given).
For CN(CCc1ccc(Cl)c(Cl)c1)CCN1CCCC1, the IC50 was 5.13 µM (SARS-CoV-2; viral replication, anti-NP immunostaining; Vero E6).
CCCCN(CCCC)CCCNC(=O)c1ccc2nc(N3CCCCC3)sc2c1 gave an efficacy of 46.1% (SARS-CoV-2; cytopathic effect; USA_WA1/2020; round 2, 5-point).

Some of these lines once more:
O=C(/C=C/c1ccc(O)c(O)c1/C=C/c1ccc(O)c(O)c1)O[C@H](Cc1ccc(O)c(O)c1)C(=O)O has a CPE inhibition of 0% (SARS-CoV-2; viral replication; Vero E6; 12.5 µM).
CCC1(C)CC(=O)NC1=O (centres unmarked) gave an IC50 of greater than 2 µM (SARS-CoV-2; viral replication; Huh-7).
C#C[C@]1(O)CC[C@H]2[C@@H]3CCC4=CCCC[C@@H]4[C@H]3CC[C@@]21C has an EC50 of greater than 50.1 µM (SARS-CoV-2; viral replication, high-content imaging screen; cell-based).
The EC50 of CCN(CC)CCOC1(c2ccccc2)CCN(CCNc2ccccc2)CC1 is reported as 22.4 µM (SARS-CoV-2; viral replication, high-content imaging screen; cell-based).
With Cc1ccc2nc(C3CCCN(Cc4cccc(-c5cccnc5)c4)C3)[nH]c(=O)c2c1 (centres unmarked) the AC50 was 12.6 µM (SARS-CoV-2; cytopathic effect, cell-based CPE; USA_WA1/2020; round 2, 5-point dilution).
